Measurements pooled from the literature.
A part holds a random share of what one study measured. pIC50: −log10 of the molar value.
UniProt P15056, sequence (whole entry, unmodified, looked up): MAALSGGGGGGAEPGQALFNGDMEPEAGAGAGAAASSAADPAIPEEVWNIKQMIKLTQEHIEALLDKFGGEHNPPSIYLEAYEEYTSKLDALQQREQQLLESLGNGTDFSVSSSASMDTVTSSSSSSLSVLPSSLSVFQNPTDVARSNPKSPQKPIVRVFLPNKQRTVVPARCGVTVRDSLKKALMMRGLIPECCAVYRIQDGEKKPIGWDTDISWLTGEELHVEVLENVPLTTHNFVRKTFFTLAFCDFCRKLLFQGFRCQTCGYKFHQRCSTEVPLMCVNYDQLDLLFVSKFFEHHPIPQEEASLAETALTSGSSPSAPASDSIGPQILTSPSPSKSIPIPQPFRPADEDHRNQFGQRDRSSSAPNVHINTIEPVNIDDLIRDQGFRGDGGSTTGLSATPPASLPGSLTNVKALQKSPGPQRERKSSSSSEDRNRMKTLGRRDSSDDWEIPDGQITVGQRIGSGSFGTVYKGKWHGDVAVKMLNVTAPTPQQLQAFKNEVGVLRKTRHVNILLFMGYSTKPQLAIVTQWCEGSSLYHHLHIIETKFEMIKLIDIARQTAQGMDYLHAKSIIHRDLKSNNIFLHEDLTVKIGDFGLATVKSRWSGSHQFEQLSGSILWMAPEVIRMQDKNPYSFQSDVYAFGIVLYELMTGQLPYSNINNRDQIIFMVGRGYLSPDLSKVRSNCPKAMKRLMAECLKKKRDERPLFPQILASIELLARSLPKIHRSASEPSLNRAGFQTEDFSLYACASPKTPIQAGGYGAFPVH
UniProt P41240, sequence (whole entry, looked up): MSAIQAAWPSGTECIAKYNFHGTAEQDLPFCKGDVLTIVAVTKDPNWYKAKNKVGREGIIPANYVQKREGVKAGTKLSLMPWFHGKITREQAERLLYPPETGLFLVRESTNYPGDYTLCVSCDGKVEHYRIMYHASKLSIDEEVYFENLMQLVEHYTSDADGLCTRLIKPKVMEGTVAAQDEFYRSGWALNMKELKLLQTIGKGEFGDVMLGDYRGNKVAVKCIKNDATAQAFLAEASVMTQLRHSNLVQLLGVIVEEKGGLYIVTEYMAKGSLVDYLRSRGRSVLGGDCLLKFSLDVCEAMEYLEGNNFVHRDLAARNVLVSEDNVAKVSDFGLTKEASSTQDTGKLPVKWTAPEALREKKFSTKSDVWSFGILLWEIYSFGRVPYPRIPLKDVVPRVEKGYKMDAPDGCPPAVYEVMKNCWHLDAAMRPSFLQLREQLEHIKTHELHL
UniProt P23443, sequence (whole entry, looked up): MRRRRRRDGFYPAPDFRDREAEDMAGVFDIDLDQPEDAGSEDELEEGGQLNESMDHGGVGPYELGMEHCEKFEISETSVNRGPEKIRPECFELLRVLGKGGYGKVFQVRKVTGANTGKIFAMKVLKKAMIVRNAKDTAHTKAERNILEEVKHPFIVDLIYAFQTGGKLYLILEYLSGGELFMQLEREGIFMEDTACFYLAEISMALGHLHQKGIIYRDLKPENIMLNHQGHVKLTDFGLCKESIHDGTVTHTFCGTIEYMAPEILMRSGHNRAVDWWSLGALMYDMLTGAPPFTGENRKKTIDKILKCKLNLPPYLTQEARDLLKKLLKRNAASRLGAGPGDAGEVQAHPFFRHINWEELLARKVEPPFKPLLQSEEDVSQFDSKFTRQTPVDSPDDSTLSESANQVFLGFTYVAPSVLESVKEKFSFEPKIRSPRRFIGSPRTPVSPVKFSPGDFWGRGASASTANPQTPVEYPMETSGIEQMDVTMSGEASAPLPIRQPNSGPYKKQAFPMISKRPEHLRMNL
UniProt P54760, sequence (whole entry, looked up): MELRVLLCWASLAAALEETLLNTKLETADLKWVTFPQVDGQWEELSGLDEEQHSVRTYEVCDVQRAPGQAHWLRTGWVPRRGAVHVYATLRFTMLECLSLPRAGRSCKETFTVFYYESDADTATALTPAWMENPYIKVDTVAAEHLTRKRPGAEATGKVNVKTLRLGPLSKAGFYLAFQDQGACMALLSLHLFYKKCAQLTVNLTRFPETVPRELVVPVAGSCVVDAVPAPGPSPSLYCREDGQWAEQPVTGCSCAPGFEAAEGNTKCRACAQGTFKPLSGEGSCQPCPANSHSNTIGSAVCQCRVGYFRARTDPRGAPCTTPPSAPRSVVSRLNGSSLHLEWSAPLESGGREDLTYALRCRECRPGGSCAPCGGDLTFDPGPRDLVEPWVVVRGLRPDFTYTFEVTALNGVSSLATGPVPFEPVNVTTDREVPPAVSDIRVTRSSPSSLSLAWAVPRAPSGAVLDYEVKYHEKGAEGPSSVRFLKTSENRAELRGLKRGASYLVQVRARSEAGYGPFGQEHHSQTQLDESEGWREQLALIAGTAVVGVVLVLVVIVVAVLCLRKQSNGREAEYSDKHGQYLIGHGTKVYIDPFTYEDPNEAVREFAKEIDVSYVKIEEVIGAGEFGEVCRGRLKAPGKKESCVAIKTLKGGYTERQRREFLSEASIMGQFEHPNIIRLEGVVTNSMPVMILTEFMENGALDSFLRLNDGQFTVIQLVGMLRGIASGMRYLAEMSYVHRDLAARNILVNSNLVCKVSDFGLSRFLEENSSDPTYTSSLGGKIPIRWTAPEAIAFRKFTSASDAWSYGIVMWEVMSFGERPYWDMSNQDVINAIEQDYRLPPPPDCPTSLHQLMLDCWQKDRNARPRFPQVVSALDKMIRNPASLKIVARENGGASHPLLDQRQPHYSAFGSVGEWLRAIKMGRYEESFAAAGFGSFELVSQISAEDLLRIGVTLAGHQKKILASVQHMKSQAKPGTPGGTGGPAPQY

Series 1
SMILES: Cc1ccc(NC(=O)c2ccnc(C(F)(F)F)c2)cc1-c1cc(OCCO)nc(N2CCOCC2)c1
The pIC50 was 8.27 (Serine/threonine-protein kinase B-raf (BRAF, Homo sapiens, UniProt P15056, V600E)).
The pIC50 was < 5.52 (Tyrosine-protein kinase ABL1 (ABL1, Homo sapiens, UniProt P00519)).
The pIC50 was < 5.52 (Ephrin type-B receptor 4 (EPHB4, Homo sapiens, UniProt P54760)).
For Receptor-type tyrosine-protein kinase FLT3 (FLT3, Homo sapiens, UniProt P36888): pIC50 read < 5.52.
For Tyrosine-protein kinase receptor Tie-1 (TIE1, Homo sapiens, UniProt P35590): pIC50 read < 5.52.
Proto-oncogene tyrosine-protein kinase Src (SRC, Homo sapiens, UniProt P12931) — pIC50: < 5.52.

Series 2 — Compound: COc1ccc(OC)c2c(=S)c3ccccc3[nH]c12; effect on: enzyme activity; mode: inhibitor; concentration: 0.5 µM; relative to: control
It gave 104% for remaining activity (Serine/threonine-protein kinase PAK 2 (PAK2, Homo sapiens, UniProt Q13177)).
It gave 93.4% for remaining activity (Macrophage colony-stimulating factor 1 receptor (CSF1R, Homo sapiens, UniProt P07333)).
It gave 77.6% for remaining activity (Protein kinase C gamma type (PRKCG, Homo sapiens, UniProt P05129)).
It gave 71% for remaining activity (Receptor-type tyrosine-protein kinase FLT3 (FLT3, Homo sapiens, UniProt P36888)).
For Serine/threonine-protein kinase pim-2 (PIM2, Homo sapiens, UniProt Q9P1W9): remaining activity read 103%.
Ribosomal protein S6 kinase beta-1 (RPS6KB1, Homo sapiens, UniProt P23443) — remaining activity: 99.4%.
The remaining activity was 104% (Glycogen synthase kinase-3 alpha (GSK3A, Homo sapiens, UniProt P49840)).
Tyrosine-protein kinase CSK (CSK, Homo sapiens, UniProt P41240) — remaining activity: 103%.

Series 3 — cell line: A-375; concentration: 100 µM; time: 18 h
With `CCCc1nc(C)c2c(=O)[nH]c(-c3cc(S(=O)(=O)N4CCN(CC)CC4)ccc3OCC)nn12` the viability was 50.8%.
With `OCCN1C[C@H](O)[C@@H](O)[C@H](O)[C@H]1CO` the viability was 91%.
With `CN1CCN(C2=Nc3ccccc3Oc3ccc(Cl)cc32)CC1` the viability was 15.4%.
For `CN(C)CCC(c1ccccc1)c1ccccn1` (centres unmarked), the viability was 101%.
With `O=C(O)c1cc(/N=N/c2ccc(S(=O)(=O)Nc3ccccn3)cc2)ccc1O` the viability was 93.2%.
The viability of `CCN(CC)CCNC(=O)c1ccc(N)cc1` is reported as 99.7%.
For `CNC(=O)c1ccccc1Sc1ccc2c(/C=C/c3ccccn3)n[nH]c2c1`, the viability was 81.3%.
`CCCCNc1ccc(C(=O)OCCN(C)C)cc1` has a viability of 90.6%.

Mixed results
With `CC[C@H](CC(=O)O)n1c(=O)c2ncccc2n(Cc2cn(C)c3cc(C)cc(C)c23)c1=O` the inhibition was 4.96% (Sodium-dependent serotonin transporter (SLC6A4, Homo sapiens, UniProt P31645); binding, radioligand binding; 10 µM).

For quick reference, copied from above (series 3):
With `CCCc1nc(C)c2c(=O)[nH]c(-c3cc(S(=O)(=O)N4CCN(CC)CC4)ccc3OCC)nn12` the viability was 50.8%.
With `OCCN1C[C@H](O)[C@@H](O)[C@H](O)[C@H]1CO` the viability was 91%.
With `CN1CCN(C2=Nc3ccccc3Oc3ccc(Cl)cc32)CC1` the viability was 15.4%.
